Published values from different studies.
Values joined by “and” are separate records of one study, mostly repeats; a detail may differ.

| Compound | target or system | system | setting | scale | endpoint | value |
| --- | --- | --- | --- | --- | --- | --- |
| Cc1nc(-c2ccc(OCC(C)C)c(C#N)c2)sc1C(=O)O | – | KM mouse, chronic hyperuricaemia model | dose not given, day 2 | – | body weight | 25.6 g and 26.7 g and 28.2 g and 26.9 g and 26.8 g and 25.3 g |
| C1=C/COCc2cc(ccc2OCCN2CCCC2)Nc2nccc(n2)-c2cccc(c2)COC/1 | – | BALB/c mice, rhEPO-induced polycythemia | 120 mg/kg, day 1 | – | body weight | 18 g and 18.2 g and 18.4 g and 20.2 g and 18.6 g and 17.7 g |
| Oc1cc(O)cc(/C=C/c2ccc(O)c(O)c2)c1 | HBL-1 | – | 0.1 µM, 120 h | – | viability | 122% |
| Cc1cnc(Nc2ccc(OCCN3CCCC3)cc2)nc1Nc1cccc(S(=O)(=O)NC(C)(C)C)c1 | – | BALB/c mice, rhEPO-induced polycythemia | 120 mg/kg, day 5 | – | body weight | 18.6 g and 18.8 g and 17.6 g and 20.1 g |
| COc1ccc(CNc2nc(-c3ccc(C(=O)O)cc3)nc3sc4ccccc4c23)cc1Cl | – | NSG mice | dose not given, day 3 | – | body weight | 21.5 g and 18.4 g and 19.1 g and 20.6 g |
| CCCCc1nc2cc(/C=C/C(=O)NO)ccc2n1CCN(CC)CC | – | mouse, MV4-11 xenograft | 50 mg/kg daily, day 21 | relative to: baseline | body weight | 92.9% |
| CCc1nn(C)c2nc(-c3ccc(C(=O)O)cc3)nc(NCc3ccc(F)cc3)c12 | – | NSG mice | dose not given, day 1 of treatment | – | body weight | 20.4 g and 20.5 g and 19.2 g and 19.3 g |
| O=C([C@@H](Cc1cccc(C(F)(F)F)c1)NS(=O)(=O)c1cc(F)c2c(c1)CCNC2)N1CCCC1 | HBL-1 | – | 1 µM, 120 h | – | viability | 96.8% |
| O=C1NC(=O)/C(=C/c2ccc3ncnc(N4CCCCC4)c3n2)S1 | – | NSG mice | dose not given, day 2 | – | body weight | 17.5 g and 23.4 g and 25 g and 19.6 g |
| O=C(O)CSc1nnc(Br)n1-c1ccc(C2CC2)c2ccccc12 | – | KM mouse, chronic hyperuricaemia model | dose not given, day 20 | – | body weight | 31.2 g and 35.8 g and 32 g and 39.4 g and 34.6 g and 37.4 g |
| COc1cc(N2CCC(N3CCN(C)CC3)CC2)ccc1Nc1ncc(Cl)c(Nc2ccccc2P(C)(C)=O)n1 | – | nude mice, NCI-H3122 xenograft | intraperitoneal, 10 mg/kg every other day, day 5 | – | body weight | 23 g and 23.7 g and 23.3 g and 20.9 g and 25 g |

Repeated from above:
| Compound | target or system | system | setting | scale | endpoint | value |
| --- | --- | --- | --- | --- | --- | --- |
| O=C1NC(=O)/C(=C/c2ccc3ncnc(N4CCCCC4)c3n2)S1 | – | NSG mice | dose not given, day 2 | – | body weight | 17.5 g and 23.4 g and 25 g and 19.6 g |
